Measurements collected from several papers.
Lines come from different studies, so protocols differ.
Medium: plasma

SMILES | host | route | dose | setting | endpoint | value
O=c1c(-c2ccc(Cl)c(CN3CCOCC3)c2)coc2cc(O)ccc12 | male Sprague-Dawley rat | oral | 10 mg/kg |  | AUC(0-t) | 458 ng·h/mL
Cc1cccc(Cn2ncc3c4cc(F)c(CN(C)C)cc4n(C)c3c2=O)n1 | Sprague-Dawley rat | oral | 10 mg/kg |  | AUC(0-t) | 1290 ng·h/mL
COC1C(c2ccc(Cl)c(Cc3ccc(OC4CCOC4)cc3)c2)OC(CO)C(O)C1O (stereo not drawn) | Sprague-Dawley rat | intravenous | 2.5 mg/kg |  | AUC | 3730 ng·h/mL
COc1cc(-c2cc(=O)c3ccc(OCCCn4c(Cl)nc5ccccc54)cc3o2)cc(OC)c1OC | male Sprague-Dawley rat | intravenous | 10 mg/kg |  | AUC(0-t) | 174 ng·h/mL
CCC(CC)n1c(Cc2ccco2)nc2cc(C(=O)N[C@@H](CC(=O)O)c3ccccc3)ccc21 | male Sprague-Dawley rat | intraperitoneal | 10 mg/kg |  | AUC(0-t) | 4920 ng·h/mL
COC(=O)C1=CNC=C(C(=O)OC)C1c1ccc(F)c(C(F)(F)F)c1 | male Sprague-Dawley rat | intravenous | 5 mg/kg |  | AUC(0-inf) | 850 ng·h/mL
CC(=Nc1ccc(N)cc1)N(C)C | male Sprague-Dawley rat | intravenous | 20 mg/kg |  | AUC(0-t) | 3530 ng·h/mL
COc1cc(OC)c2c(=O)cc(-c3cc(C)c(OCCCN4CCN(C)CC4)c(C)c3)oc2c1 | male Sprague-Dawley rat | oral | 20 mg/kg | single dose | AUC(0-t) | 7040 ng·h/mL
CN1CCC[C@@H]1C(=O)N[C@@H](Cc1ccc(-c2ccccc2)cc1)B(O)O | male Sprague-Dawley rat | oral | 1 mg/kg |  | AUC(0-t) | 0.853 µM·h
CC1(C)C(NC(=O)C(=NOC2(C(=O)O)CC2)c2csc(N)n2)C(=O)N1OS(=O)(=O)O (stereo not drawn) | rat | intravenous | 10 mg/kg | single dose | AUC | 20900 ng·h/mL
Cc1cc2c(cc1O)C=C1C=CC(=O)C(C)(C)[C@H]1CC2 | male Sprague-Dawley rat | intravenous | 2 mg/kg |  | AUC(0-t) | 619 ng·h/mL
CCC(CC)n1c(Cc2cccs2)nc2cc(C(=O)N[C@@H](CC(=O)O)c3ccccc3)ccc21 | male Sprague-Dawley rat | intraperitoneal | 10 mg/kg |  | AUC(0-t) | 3540 ng·h/mL
COc1cc(C2C3=C(COC3=O)N(CCO)c3cc4c(cc32)CCC4)cc(OC)c1OC (stereo not drawn) | female Sprague-Dawley rat | intraperitoneal | 50 mg/kg |  | AUC(0-inf) | 3380 ng·h/mL
O=C(C1CCN(c2nnnn2-c2ccccc2)CC1)N1CCCc2ccccc21 | male Sprague-Dawley rat | intravenous | 1 mg/kg |  | AUC(0-inf) | 511 ng·h/mL
C/C(N)=N/C(=N\S(=O)(=O)c1ccc(C(F)(F)F)cc1)N1C[C@H](c2ccccc2)C(c2ccc(Cl)cc2)=N1 | male Sprague-Dawley rat | oral | 3 mg/kg |  | AUC(0-inf) | 2730 ng·h/mL
CC(C)C[C@H](NC(=O)[C@H](CCCN)NC(=O)CNC(=O)[C@@H](NC(=O)[C@H](C)NC(=O)[C@@H]1CSCSC[C@H](NC(=O)CC[C@H](N)C(=O)O)C(=O)N[C@@H](CC(N)=O)C(=O)N[C@@H]([C@@H](C)O)C(=O)N[C@@H](C)C(=O)N[C@@H]([C@@H](C)O)C(=O)N1)[C@@H](C)O)C(=O)N[C@@H](C)C(=O)N[C@@H](CCC(=O)O)C(=O)N[C@@](C)(Cc1ccccc1)C(=O)N[C@@H](CC(C)C)C(=O)N[C@H](C(=O)N[C@@H](CCCNC(=N)N)C(=O)N[C@@H](CO)C(=O)N[C@@H](CO)C(=O)N[C@@H](CC(N)=O)C(=O)N(C)[C@@H](CC(N)=O)C(=O)N[C@@H](Cc1ccccc1)C(=O)NCC(=O)N1CCC[C@H]1C(=O)N[C@@H](CCCCNC(=O)CC[C@H](NC(=O)CC[C@H](NC(=O)CCCCCCCCCCCCCCCCCCC(=O)O)C(=O)O)C(=O)O)C(=O)N[C@@H](CC(C)C)C(=O)N1CCC[C@H]1C(=O)N1CCC[C@H]1C(=O)N[C@H](C(=O)N[C@@H](CCC(=O)O)C(=O)N[C@H](C(=O)NCC(=O)N[C@@H](CO)C(=O)N[C@@H](CC(N)=O)C(=O)N[C@H](C(=O)N[C@@H](Cc1ccc(O)cc1)C(N)=O)[C@@H](C)O)C(C)C)[C@@H](C)O)C(C)C | male Sprague-Dawley rat | subcutaneous | 30 nmol/kg | single dose | AUC(0-inf) | 14.2 µM·h
OC1(C(F)(F)F)CCN(c2nc(Nc3ccnc(C(F)(F)F)c3)nc(-c3cccc(C(F)(F)F)n3)n2)C1 (stereo not drawn) | Sprague-Dawley rat | oral | 20 mg/kg |  | AUC(0-inf) | 40300 ng·h/mL
CCCN(C)c1cc(C(F)(F)F)nc(SCCC(=O)NCc2ccco2)n1 | male Wistar rat | intraperitoneal | 25 mg/kg | single dose | AUC(0-inf) | 929 ng·h/mL

For quick reference, copied from above:
SMILES | host | route | dose | setting | endpoint | value
O=c1c(-c2ccc(Cl)c(CN3CCOCC3)c2)coc2cc(O)ccc12 | male Sprague-Dawley rat | oral | 10 mg/kg |  | AUC(0-t) | 458 ng·h/mL
Cc1cc2c(cc1O)C=C1C=CC(=O)C(C)(C)[C@H]1CC2 | male Sprague-Dawley rat | intravenous | 2 mg/kg |  | AUC(0-t) | 619 ng·h/mL
